Assay results of several laboratories.
“And” joins repeats or separate records; there may be more than shown. ± gives the spread as reported.

Cc1cc(NS(=O)(=O)c2ccc(N=NN(O)c3ccccc3)cc2)no1
paw edema volume (carrageenan-induced paw edema; Wistar rat; oral, 100 mg/kg, 0 h (baseline), added: carrageenan 1% subplantar; higher = more edema): 3.6 ± 0.46 a.u.

Cc1c(C)n(Cc2cccc(OC(C)(C)C(=O)O)c2)c2ccc(C(=O)N[C@@H](C)c3ccc(C(C)(C)C)cc3)cc12
VCO2 (indirect calorimetry; mice, diet-induced obese; dose not given, average over 72 h, end of treatment): 75.9 ± 7.04 mL/min/kg

COc1ncc(-c2nc3c(n2C(C)C)[C@H](c2ccc(Cl)cc2)N(c2cc(Cl)cn(C)c2=O)C3=O)c(OC)n1
best overall response (antileukemic activity, item: treatment failure, indeterminate cause; human, acute myeloid leukaemia; 150 mg, high-dose, other doses): 16.7%

NCC(=O)Nc1cncc(-c2nn3c(=O)cc(N4CCNCC4)nc3s2)c1
inhibition of platelet aggregation (ADP-induced platelet aggregation, light transmission aggregometry; human stable CAD patients on aspirin, platelets ex vivo; 0.075 mg/kg, 60 min post dose, added: 20 µM ADP; baseline: placebo difference): 52.5%

NC(=O)c1cnc2[nH]ccc2c1N[C@@H]1[C@@H]2CC3C[C@H]1C[C@@](O)(C3)C2
change from baseline (flow cytometry, item: regulatory T cells; Japanese healthy subjects, peripheral blood; oral, 10 mg twice daily, day 7): -1.2%

Cc1cccc(N(O)N=Nc2ccc(S(=O)(=O)Nc3nccs3)cc2)c1
paw edema volume (carrageenan-induced paw edema; Wistar rat; oral, 100 mg/kg, 0 h (baseline), added: carrageenan 1% subplantar; higher = more edema): 3.61 ± 0.32 a.u.

CNCc1cc(-c2ccccc2F)n(S(=O)(=O)c2cccnc2)c1
gastric lesion area (rat, aspirin-induced ulcer; oral, 2 mg/kg, 4 h, added: aspirin 150 mg/kg): 37.9 ± 8.5 mm

CCCN(O)N=Nc1ccc(S(=O)(=O)Nc2cc(C)on2)cc1
paw edema volume (carrageenan-induced paw edema; Wistar rat; oral, 100 mg/kg, 2 h after carrageenan, added: carrageenan 1% subplantar; higher = more edema): 5.35 ± 0.51 a.u.

CN(C)C(=O)c1cc2cnc(Nc3ccc(N4CCNCC4)cn3)nc2n1C1CCCC1
GSEA enrichment score (RNA-seq GSEA, item: HALLMARK_XENOBIOTIC_METABOLISM; MB002 tumour; concentration not given, in vivo; baseline: vehicle, direction not given): 0.319

CSCCNc1nc(SCCC(F)(F)F)nc2c1ncn2[C@@H]1O[C@H](COP(=O)(O)OP(=O)(O)C(Cl)(Cl)P(=O)(O)O)[C@@H](O)[C@H]1O
inhibition (platelet aggregation, light transmission aggregometry; human patients, platelet-rich plasma; dose not given, 30 min, added: TRAP 5 µM): 25.9 ± 27.8%

c1ccc(-c2n[nH]cc2-c2ccnc3ccccc23)nc1
log2 fold change (kinase binding, competitor, MIB/MS competition, item: CEK1; Candida albicans cell lysate; 1 µM; baseline: DMSO): 1.54

COc1ccc(C2=N[C@@H](c3ccc(Cl)cc3)[C@@H](c3ccc(Cl)cc3)N2C(=O)N2CCNC(=O)C2)c(OC(C)C)c1
centrally nucleated fibres (histology; Dmd C3333Y mice, quadriceps; dose not given): 83% and 91% and 86% and 78% and 92%

OC[C@H]1O[C@@H](c2ccc(Cl)c(Cc3ccc(O[C@H]4CCOC4)cc3)c2)[C@H](O)[C@@H](O)[C@@H]1O
AUC50 (fasting plasma glucose, exposure-response PK/PD model; type 2 diabetes patients; dose not given, bootstrap median): 704 nM·h

O=C(O)c1cccc(-c2noc(-c3ccccc3F)n2)c1
DR activity (DCPIP reduction; K562 cell lysate; 10 µM, 60 min): 0.0576 OD/min and 0.06 OD/min and 0.0531 OD/min

CC1(C)CCC(c2ccc(Cl)cc2)=C(CN2CCN(c3ccc(C(=O)NS(=O)(=O)c4ccc(N[C@H](CCN5CCOCC5)CSc5ccccc5)c(S(=O)(=O)C(F)(F)F)c4)cc3)CC2)C1
EC50 (cell killing; canine lymph node CD21+ B cells, dog 39; 24 h): 184 nM

CN(O)N=Nc1ccc(S(=O)(=O)Nc2nccs2)cc1
paw edema volume (carrageenan-induced paw edema; Wistar rat; oral, 100 mg/kg, 1 h after carrageenan, added: carrageenan 1% subplantar; higher = more edema): 6 ± 1.33 a.u.

CCO[C@H]1CCN(Cc2c(OC)cc(C)c3[nH]ccc23)[C@H](c2ccc(C(=O)O)cc2)C1
C3d-positive type III RBCs (PNH patients, blood; oral, 50 mg then 200 mg, week 8, mean absolute change; baseline: baseline): -1.7%

OC(CCN1CCCCC1)(c1ccccc1)C1CC2C=CC1C2 (centres unmarked)
power, EEG, Alpha, O2-Pz (resting-state EEG; healthy elderly humans; oral, 2 mg, eyes open, LS mean): 9.9 µV²

CC(C)[C@H](C(=O)Nc1ccc(C(=O)NO)cc1)c1ccccc1
tumour volume (volumetric MRI; human, right meningioma; dose not given, day 133): 9.2 cm3

COc1cc2cc(-c3ccc(CC(=O)Nc4cc(C(C)(C)C(F)(F)F)no4)cn3)cnc2cc1OC
stable disease as best response (RECIST v1.1; RET-altered advanced solid tumour patients; oral, 40 mg once daily, phase I): 67%

COc1cc(/C=C/C(=O)N2CCC=CC2=O)cc(OC)c1OC
mRNA level (qRT-PCR, item: CIAP; nude mouse, 468 xenograft, tumour; 15 mg/kg, 21 days, unit not given; baseline: β-actin, vehicle): 0.498

Cc1ccc(N(O)N=Nc2ccc(S(=O)(=O)Nc3onc(C)c3C)cc2)cc1
paw edema volume (carrageenan-induced paw edema; Wistar rat; oral, 100 mg/kg, 4 h after carrageenan, added: carrageenan 1% subplantar; higher = more edema): 4.22 ± 0.89 a.u.

O=C1Nc2cc3[nH]nc(-c4ccncc4)c3cc2CN1Cc1ccccc1
progressive disease, best response (RECIST v1.1; human, relapsed or refractory advanced solid tumours; intravenous, 1.8 mg/kg, pooled schedules): 100%

O=S(=O)(NCCNC/C=C/c1ccc(Br)cc1)c1cccc2cnccc12
embryos reaching blastocyst (mouse zygotes; 20 µM, 48 h post-hCG): 0%

COc1cccc2c(N3CCC(CCP(=O)(O)O)CC3)ncnc12
time to IFN-γ detection (mouse, serum): ≤ 8 h

CC(C)NCC(O)c1ccc(O)c(O)c1 (centres unmarked)
sarcomere length (ventricular cardiomyocytes, C57BL/6 mouse; dose not given, 0.184 s): 1.5 µm

OCC(O)CO
hexose phosphate concentration (targeted LC-MS; male Slc25a13-/- Gpd2-/- mice, liver; drinking water, 5% w/v, 2 days): 0.381 mM and 0.874 mM and 0.573 mM and 0.519 mM and 0.363 mM

Cc1ccc(N(O)N=Nc2ccc(S(=O)(=O)Nc3cc(C)on3)cc2)cc1
paw edema volume (carrageenan-induced paw edema; Wistar rat; oral, 100 mg/kg, 4 h after carrageenan, added: carrageenan 1% subplantar; higher = more edema): 4.11 ± 1.12 a.u.

O=C(OC(C(F)(F)F)C(F)(F)F)N1CCN(Cc2cccc(Oc3ccccc3)c2)CC1
tracer distribution volume (PET; rhesus monkey, pons; intravenous, 0.1 mg/kg, pretreatment blocking, added: [18F]T-401): 2.31 mL/cm3

CCN(O)N=Nc1ccc(S(=O)(=O)Nc2cc(C)on2)cc1
paw edema volume (carrageenan-induced paw edema; Wistar rat; oral, 100 mg/kg, 4 h after carrageenan, added: carrageenan 1% subplantar; higher = more edema): 4 ± 0.88 a.u.

C[C@H]1C[C@H]2CSC(N)=N[C@@]2(c2nc(NC(=O)c3ccc(OC(F)F)cn3)cs2)CO1
percent change from baseline (item: total Aβ; healthy adults, plasma; 540 mg single dose, 6 h post-dose; baseline: placebo): -57.6%

Cc1cc(F)cc2c(CCC(=O)N[C@@H]3C(=O)NC[C@H]3O)c(-c3ccc(F)cc3)[nH]c12
UACR AUC days 6-14 (mice, APOL1 G2, single copy; oral, 30 mg/kg twice daily, dosing from day 6, added: IFNγ plasmid injection): 56700 µg·days/mg and 25200 µg·days/mg and 4540 µg·days/mg and 2780 µg·days/mg and 4990 µg·days/mg

C[C@@H](NC(=O)N1C(=O)[C@H](Cc2ccnc(N)c2)[C@H]1C(=O)O)C1CCCCC1
ACT Emax (human; iv infusion, 1.5 mg/kg/h, 24 h, unit not given; baseline: baseline): 1.08

N#Cc1ccn2c(-c3ccncc3)c(-c3ccc(F)cc3)nc2c1
log2 fold change (kinase binding, competitor, MIB/MS competition, item: HRR25; Candida albicans cell lysate; 100 nM; baseline: DMSO): -0.0969

COc1nc(NCc2cn(-c3ccc(C(N)=O)cc3)nn2)nc(OC)n1
IC50 (cell viability, MTT; normal colonocytes, rat; 72 h): 19.9 ± 3.06 nM

COc1c(C)cnc(Cn2cc(C#CCCOP(=O)(O)O)c3c(Cl)nc(N)nc32)c1C
Hsp70 level increase (human patients, PBMCs; 48 mg/m^2; baseline: baseline): 300%

O=C(O)CNC(=O)Cc1ccccc1
sarcomere length (ventricular cardiomyocytes, C57BL/6 mouse; dose not given, 0.608 s): 1.68 µm

COc1ccccc1[C@H](Cn1c(=O)n(C(C)(C)C(=O)O)c(=O)c2c(C)c(-c3ncco3)sc21)OC1CCOCC1
serum leptin (human; 50 mg, post-treatment): 3.68 ± 2.97 ng/mL

A few entries again:
COc1cccc2c(N3CCC(CCP(=O)(O)O)CC3)ncnc12
time to IFN-γ detection (mouse, serum): ≤ 8 h

CC(C)NCC(O)c1ccc(O)c(O)c1 (centres unmarked)
sarcomere length (ventricular cardiomyocytes, C57BL/6 mouse; dose not given, 0.184 s): 1.5 µm

OCC(O)CO
hexose phosphate concentration (targeted LC-MS; male Slc25a13-/- Gpd2-/- mice, liver; drinking water, 5% w/v, 2 days): 0.381 mM and 0.874 mM and 0.573 mM and 0.519 mM and 0.363 mM

Cc1ccc(N(O)N=Nc2ccc(S(=O)(=O)Nc3cc(C)on3)cc2)cc1
paw edema volume (carrageenan-induced paw edema; Wistar rat; oral, 100 mg/kg, 4 h after carrageenan, added: carrageenan 1% subplantar; higher = more edema): 4.11 ± 1.12 a.u.

O=C(OC(C(F)(F)F)C(F)(F)F)N1CCN(Cc2cccc(Oc3ccccc3)c2)CC1
tracer distribution volume (PET; rhesus monkey, pons; intravenous, 0.1 mg/kg, pretreatment blocking, added: [18F]T-401): 2.31 mL/cm3
